{"data": "Measured values of several laboratories", "CDK19": "Cyclin-dependent kinase 19 (CDK19, Homo sapiens, UniProt Q9BWU1)", "note": "Compare with care: the assays were run in different laboratories."}
{"target": "CDK19", "test": "binding, competition with immobilised ligand", "conditions": "3 µM", "quantity": "remaining binding", "result": "92%", "SMILES": "COc1c(Cl)cccc1Nc1c(-c2ccncc2C#C[C@@]2(C)CCCN2C(=O)/C=C/CN(C)C)[nH]c2c1C(=O)NCC2"}
{"target": "CDK19", "test": "KINOMEscan competition", "conditions": "10 µM", "scale": "lower = stronger binding", "quantity": "remaining binding", "result": "29%", "SMILES": "Cc1ccc(C)c(-c2cc(NC(=O)c3cncc(Br)c3)[nH]n2)c1"}
{"target": "Cyclin-dependent kinase 19, with cyclin C (CDK19, Homo sapiens, UniProt Q9BWU1)", "test": "kinome panel", "conditions": "1 µM", "quantity": "inhibition", "result": "6.5%", "SMILES": "C=CC(=O)N1Cc2nc(-c3cc(-c4cc(Cl)cnc4Cl)c(F)cc3F)n(-c3ccncn3)c2C1"}
{"target": "CDK19", "test": "enzyme activity", "conditions": "0.5 µM", "quantity": "remaining activity", "result": "4.2%", "SMILES": "CN1CCN(Cc2ccc(NC(=O)c3cccc(C#Cc4cnc(N)c5ncccc45)c3)cc2C(F)(F)F)CC1"}
{"target": "Cyclin-dependent kinase 19, inactive (CDK19, Homo sapiens, UniProt Q9BWU1)", "test": "SelectScreen kinase profiling", "conditions": "0.1 µM", "quantity": "inhibition", "result": "1%", "SMILES": "CN1CCN(Cc2ccc(-c3ccc(CO[C@H]4CCC[C@@H]4NC(=O)c4cc(-c5cnn(C)c5)cnc4N)cc3)cc2)CC1"}
{"target": "CDK19", "test": "cell-free assay, competition with immobilised ligand", "conditions": "10 µM", "quantity": "remaining binding", "result": "100%", "SMILES": "C=C1CCCCCCCCCC(CO)C1=O (centres unmarked)"}
{"target": "CDK19", "test": "KinomeScan", "conditions": "1 µM", "quantity": "remaining binding", "result": "25%", "SMILES": "Cc1ccc(C(=O)Nc2cccc(C(F)(F)F)c2)cc1Nc1cncc(C(N)=O)c1"}
{"target": "CDK19", "test": "binding, competition with immobilised ligand", "conditions": "1 µM", "quantity": "remaining binding", "result": "92%", "SMILES": "COc1cc(Nc2nccc(-c3cnn4nc(OC)ccc34)n2)cc(C(F)(F)F)c1"}
{"target": "CDK19", "test": "KINOMEscan", "conditions": "1 µM", "scale": "baseline: DMSO control", "quantity": "remaining binding", "result": "100%", "SMILES": "CNC(=O)C1CCN(c2cc(C)c(F)cc2NC(=O)c2ccc(-c3cc(O)ccc3C)c(C)c2)CC1"}
{"target": "CDK19", "test": "KinomeScan", "conditions": "10 µM", "quantity": "remaining binding", "result": "43%", "SMILES": "COc1ccc(NC(=O)Nc2ccc3c(c2)C(=O)N(C(C)CO)CC(C)C(CN(C)Cc2ccc4c(c2)OCO4)O3)cc1 (centres unmarked)"}
{"target": "CDK19", "test": "KINOMEscan", "conditions": "1 µM", "quantity": "remaining binding", "result": "96%", "SMILES": "C[C@]1(O)CCCN(c2nc(Nc3ccc(S(=O)(=O)N[C@H]4CC[C@H](CN5CCN(c6ccc(C7CCC(=O)NC7=O)cc6F)CC5)CC4)cc3)ncc2C(F)(F)F)C1 (some centres unmarked)"}
{"target": "CDK19", "test": "scanMAX", "conditions": "1 µM", "quantity": "remaining binding", "result": "88%", "SMILES": "Nc1ncc2c(n1)-c1c([nH]c3ccc(C4=CCOCC4)cc13)CCC2"}
{"target": "CDK19", "test": "KINOMEscan competition binding", "conditions": "10 µM", "scale": "baseline: control", "quantity": "remaining binding", "result": "100%", "SMILES": "CNS(=O)(=O)Nc1nccc(Cc2c(C)c3ccc(Oc4ncccc4F)cc3oc2=O)c1F"}
{"target": "CDK19", "conditions": "concentration not given, gene name CDK11", "quantity": "percent of control", "result": "100%", "SMILES": "Cc1cnc2nc1Nc1cccc(c1)COC/C=C/COCc1cc(ccc1OCCN1CCOCC1)N2"}
{"note": "A few entries again:"}
{"target": "CDK19", "test": "KINOMEscan", "conditions": "1 µM", "quantity": "remaining binding", "result": "96%", "SMILES": "C[C@]1(O)CCCN(c2nc(Nc3ccc(S(=O)(=O)N[C@H]4CC[C@H](CN5CCN(c6ccc(C7CCC(=O)NC7=O)cc6F)CC5)CC4)cc3)ncc2C(F)(F)F)C1 (some centres unmarked)"}
